Results pooled from the literature.
Each numbered part is a random draw from the data of one study; scales do not carry over between parts. Changes are numbered by the printed parent chain.
Chain of UniProt O15294 (whole entry, looked up): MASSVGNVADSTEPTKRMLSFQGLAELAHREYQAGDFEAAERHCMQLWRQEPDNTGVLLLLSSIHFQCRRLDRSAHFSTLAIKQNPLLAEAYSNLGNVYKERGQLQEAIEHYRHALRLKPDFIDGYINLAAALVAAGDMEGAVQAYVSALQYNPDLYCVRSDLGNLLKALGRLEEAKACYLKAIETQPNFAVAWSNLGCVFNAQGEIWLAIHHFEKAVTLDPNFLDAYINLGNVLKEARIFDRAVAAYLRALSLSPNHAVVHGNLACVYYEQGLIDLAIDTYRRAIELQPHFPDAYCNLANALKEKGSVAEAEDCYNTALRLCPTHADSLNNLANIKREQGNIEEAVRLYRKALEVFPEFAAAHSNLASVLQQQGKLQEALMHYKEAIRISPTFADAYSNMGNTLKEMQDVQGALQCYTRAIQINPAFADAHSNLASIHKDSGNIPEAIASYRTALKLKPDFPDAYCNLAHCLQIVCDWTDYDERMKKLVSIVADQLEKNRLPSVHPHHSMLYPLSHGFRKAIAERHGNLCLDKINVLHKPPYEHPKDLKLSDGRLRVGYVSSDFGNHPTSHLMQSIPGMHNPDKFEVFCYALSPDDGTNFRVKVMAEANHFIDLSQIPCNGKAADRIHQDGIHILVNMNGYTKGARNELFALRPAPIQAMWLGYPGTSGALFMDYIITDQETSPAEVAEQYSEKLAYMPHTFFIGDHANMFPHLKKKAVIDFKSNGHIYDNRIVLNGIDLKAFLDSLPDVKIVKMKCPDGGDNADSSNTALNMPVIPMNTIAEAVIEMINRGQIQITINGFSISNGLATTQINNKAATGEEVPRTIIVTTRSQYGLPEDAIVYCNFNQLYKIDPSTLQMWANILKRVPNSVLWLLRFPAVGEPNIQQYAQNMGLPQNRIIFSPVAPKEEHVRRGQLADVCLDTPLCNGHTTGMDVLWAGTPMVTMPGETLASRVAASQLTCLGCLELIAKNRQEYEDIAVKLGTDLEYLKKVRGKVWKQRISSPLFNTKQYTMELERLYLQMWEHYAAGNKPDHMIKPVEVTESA

Study 1 — target: CCNE2, cyclin fold, Cln2 fusion (human); technique: yeast growth competition, sequencing; sample: yeast; notes: strong parent motif; relative to: not given; direction: higher = stronger binding; parent: viral docking peptide; KGVKRKLFAEDSS
Substitution	normalised enrichment score
K4R	7.67
K4M	3.42
A9F	6.48
S12R	6.54
L7Y	0.379
R5N	-0.331
A9R	6.41
S12G	6.26
G2A	5.76
L7P	0.239
E10F	4.75
A9G	5.98
L7K	0.464
V3I	3.79
F8A	0.625
K4C	6.43
D11F	5.93
F8D	-0.257
A9Y	6.32
G2N	6.86
K6G	1.02
A9W	6

Study 2 — technique: RNA Bind-n-Seq; form: RNA; sample: in vitro; concentration: 200 nM; notes: whole 134-nt RNA, ends assumed; added: 150 mM LiCl; relative to: input library; direction: higher = stronger binding; library: 7-deaza-guanosine replaces G
Target: Fragile X messenger ribonucleoprotein 1, C-terminal low-complexity region (Fmr1, Mus musculus, UniProt P35922)
Constant ends, left off below: GGGAGUUCUACAGUCCGACGAUC … UGGAAUUCUCGGGUGUCAAGG
Oligonucleotide	log2 enrichment
GCAGGAAGUAAAAACAAAUGGAAAUGCUUGGGAUAGUGGCAGGGGUGGGGGUUGCUAAGGAAAGGGUGGGAUGGGAGUGGGUAAAGAGUU	1.59
UCCUGUGCUACACAUCGUAUGUACCGAAUCGGGGAAAAAAGGGGAAAAAAGGAAAAAAGGAAAGUAUUAUGUUACGCCGUUCGGAUCUGC	-0.291
CACAGCCAACACGCACCCACACAGACACAGAGGGAAGGGGUUGGGAUGGGGACAGGGUGCACAGCAGGGCGGGGUAGGACCCCAGCCCCU	1.38
CAAGUCCUGUGCUACACAUCGUAUGUACCGAAUCGGGGAAAGGGAAAGGGGAAAGGAAAGUAUUAUGUUACGCCGUUCGGAUCUGCACUU	-0.953
UGUAACCUGGGGAUUCUCUCAACUCUCUUGUCCCACACAGACUUCUAUGAGGAAAUCCAGGAGUUUGUGAAAGAUGUCUUUUCACCUAUA	1.09
UGGGAGGUGGAUUUUGUUUAGUUUUUUAGCUCAUUUCCAGGGGUGGGAAUUUUUUUUUAAUAUGUGUCAUGAAUAAAGUUGUUUUUGAAA	0.453
CAAGUCCUGUGCUACACAUCGUAUGUACCGAAUCGGUGGAAAAAGGAAAAAAAGGAAAGUAUUAUGUUACGCCGUUCGGAUCUGCACUUC	-0.899
UGGCCCUGGUGGCAUGCGGGGAUGAAGAGGUGGCCUCAUGGAUCGUGGUGGUCCCGGUGGAAUGUUCAGAGGUGGCCGUGGUGGAGACAG	-0.208

Study 3 — Substitution: L94N; technique: DHFR PCA, deep sequencing; sample: yeast; relative to: wild-type fitted maximum; direction: higher = stronger binding
Target: ABI1, truncated, D143A, DHFR fusion (Arabidopsis thaliana)
Notes: methotrexate growth selection, single substitutions
Parent: PYL1, truncated, DHFR fusion (Arabidopsis thaliana); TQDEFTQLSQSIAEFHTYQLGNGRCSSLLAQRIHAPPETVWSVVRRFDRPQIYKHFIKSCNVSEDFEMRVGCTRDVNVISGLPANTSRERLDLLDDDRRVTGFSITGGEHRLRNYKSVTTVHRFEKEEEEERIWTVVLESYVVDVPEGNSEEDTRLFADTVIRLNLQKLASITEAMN; partner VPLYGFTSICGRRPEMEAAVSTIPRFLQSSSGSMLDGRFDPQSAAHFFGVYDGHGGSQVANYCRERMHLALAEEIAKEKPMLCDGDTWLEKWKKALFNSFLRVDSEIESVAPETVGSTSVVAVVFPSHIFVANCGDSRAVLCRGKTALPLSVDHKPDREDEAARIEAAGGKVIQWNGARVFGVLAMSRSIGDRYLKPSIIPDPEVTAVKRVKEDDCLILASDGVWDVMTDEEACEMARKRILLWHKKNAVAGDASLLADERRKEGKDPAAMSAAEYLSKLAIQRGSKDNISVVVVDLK
conditions	relative binding score
added: (+)-ABA 4.8 µM	9.74%
added: (+)-ABA 58 µM	19.5%
added: (+)-ABA 0.11 µM	-7.64%
added: (+)-ABA 0.0091 µM	-4.38%
added: (+)-ABA 0.032 µM	7.4%
added: (+)-ABA 200 µM	39.8%

Study 4 — technique: protein-binding microarray; form: double-stranded DNA, one strand shown; sample: in vitro; concentration: not given; direction: higher = stronger binding
Target: Transcriptional repressor CTCF (CTCF, Homo sapiens, UniProt P49711, residues 1-727, full length assumed)
Notes: k-mer, scored over probes, only values ≥0.25
Construct (chain): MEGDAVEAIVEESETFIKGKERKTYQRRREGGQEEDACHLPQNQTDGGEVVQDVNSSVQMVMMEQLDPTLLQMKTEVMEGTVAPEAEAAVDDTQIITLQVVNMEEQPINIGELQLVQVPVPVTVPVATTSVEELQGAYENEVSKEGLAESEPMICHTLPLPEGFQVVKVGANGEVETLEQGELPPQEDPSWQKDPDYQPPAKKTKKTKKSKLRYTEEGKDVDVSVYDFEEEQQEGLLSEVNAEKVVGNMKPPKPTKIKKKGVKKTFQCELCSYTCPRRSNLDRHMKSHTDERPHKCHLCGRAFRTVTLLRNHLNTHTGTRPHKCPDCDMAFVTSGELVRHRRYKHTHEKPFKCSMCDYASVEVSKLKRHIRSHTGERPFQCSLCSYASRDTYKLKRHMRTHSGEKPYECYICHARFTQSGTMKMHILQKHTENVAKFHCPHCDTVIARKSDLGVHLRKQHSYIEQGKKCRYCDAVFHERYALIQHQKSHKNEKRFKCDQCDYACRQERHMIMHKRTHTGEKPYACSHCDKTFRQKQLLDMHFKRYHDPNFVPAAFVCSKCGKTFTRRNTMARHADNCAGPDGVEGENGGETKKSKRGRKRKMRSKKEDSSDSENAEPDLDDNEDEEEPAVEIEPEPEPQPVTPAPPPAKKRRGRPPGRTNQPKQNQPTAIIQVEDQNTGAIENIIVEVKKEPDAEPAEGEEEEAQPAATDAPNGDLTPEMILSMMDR
Oligonucleotide	E-score
AATTTTTA	0.271
TCGGAAAA	0.296
AACAATAT	0.314
GTGTAATA	0.295
AGCGCATA	0.31
TATGTCAA	0.302
AATTATGA	0.296
AGTAGCGC	0.334

Further values, each from its own experiment
Molecule	target	assay	test system	scale	endpoint	value
HVEHVMHRSQAHDTH	UDP-N-acetylglucosamine--peptide N-acetylglucosaminyltransferase 110 kDa subunit (OGT, Homo sapiens, UniProt O15294)	binding, phage display NGS	peptide	relative to: input library	minimum log2 enrichment ratio	2.09

Repeated from above (study 1):
Substitution	normalised enrichment score
S12G	6.26
S12R	6.54
V3I	3.79
G2N	6.86
L7Y	0.379
L7K	0.464
L7P	0.239
